Measured values of several laboratories.
Parts stem from different laboratories: compare values within a part only. Positions count from the first letter of the parent shown.

Series 1 — method: DHFR PCA, deep sequencing; matrix: yeast; added: (+)-ABA 0.11 µM; relative to: wild-type fitted maximum; direction: higher = stronger binding; endpoint: relative binding score
Target: ABI1, truncated, D143A, DHFR fusion (Arabidopsis thaliana)
Setting: methotrexate growth selection, single substitutions
Parent: PYL1, truncated, DHFR fusion (Arabidopsis thaliana); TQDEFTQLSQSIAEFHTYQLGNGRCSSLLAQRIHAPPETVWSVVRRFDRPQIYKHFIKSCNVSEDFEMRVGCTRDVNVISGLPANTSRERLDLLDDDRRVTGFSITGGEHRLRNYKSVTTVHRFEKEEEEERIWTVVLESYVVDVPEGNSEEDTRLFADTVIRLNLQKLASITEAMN
V142G: 1.81%
R113C: 13.8%
E130I: 15.1%
E38V: -1.47%
F124P: -4.04%
A158Y: 22.2%
I105E: -9.65%

Series 2 — target: CCNB3, cyclin fold, Cln2 fusion (human); method: yeast growth competition, sequencing; matrix: yeast; setting: strong parent motif; relative to: not given; direction: higher = stronger binding; endpoint: normalised enrichment score
Parent: BRCA2 docking peptide (human); PSIKRNLLNEFDR; partner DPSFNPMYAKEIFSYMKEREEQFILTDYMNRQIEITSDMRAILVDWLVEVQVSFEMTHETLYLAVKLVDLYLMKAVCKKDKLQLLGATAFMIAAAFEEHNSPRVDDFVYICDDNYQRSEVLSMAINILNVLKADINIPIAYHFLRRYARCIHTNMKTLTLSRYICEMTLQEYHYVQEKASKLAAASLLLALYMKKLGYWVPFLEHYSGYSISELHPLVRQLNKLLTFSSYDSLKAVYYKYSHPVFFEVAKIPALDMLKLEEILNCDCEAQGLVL
PSIKRNLLNEFDD [R13D]: 0.975
PNIKRNLLNEFDR [S2N]: 1.18
PSIKRNLLNPFDR [E10P]: 0.186
PSIIRNLLNEFDR [K4I]: 0.419
PSIKRNLLNWFDR [E10W]: 0.162
PSIKRNLLNEFHR [D12H]: 0.371

Series 3 — method: RNA Bind-n-Seq; molecule type: RNA; matrix: in vitro; tested at: 365 nM; relative to: no-protein control; direction: higher = stronger binding; endpoint: RBNS enrichment (R)
Target: RNA binding protein fox-1 homolog 2, RRM domain, GST-SBP tag (RBFOX2, Homo sapiens, UniProt O43251-10, residues 100-194)
Setting: natural RNA segment, single round, ends assumed
Constant ends, left off below: GGGAGUUCUACAGUCCGACGAUC … UGGAAUUCUCGGGUGCCAA
Residues (chain): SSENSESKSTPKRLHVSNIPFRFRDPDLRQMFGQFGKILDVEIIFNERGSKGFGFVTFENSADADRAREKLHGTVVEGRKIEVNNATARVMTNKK
CUCAGCAAUUACUCACGCCGUCACAUGUGCCCACAGUAGCGGGCUCCGCGGCGUGGCUCCUGCUGCCAUCAGCUGCCUUCUCUGCUGAAGUCCAACUCAAGUCGGAGAGA: 0.227
UUUCUUUAGCUUAAUUUUGUGUGUGCACUAACAUUCCCUGGUUUUUGUGUGAUCAUUCCGAGUGUUGCUGCAAGAUUACAGUGGACGUGAUCUUUUAGCAUGUGCUUUUA: 2.69
CACAGUCUUAGGGGAAAUGUUUGUUAUGAUGUAAAUUUUAUUUGGUUUGUACGCAGUUCAAUUUCAAAAUUGCUAAAAUGUGUUUGAGCUUUAGACUAUAACAUUUGUUG: 0.483
AUACCCAGGUUUGGUUCCUCUAGGGGGGGGCCCCCACUGUGGAGAUAAAAGUCGGGGAUGGAAUGGGGGAAGAGGAAGGGCAGGAAAGCCCUCACCCUUUGCUGCCCUGG: 0.313
UUUCCAUCCAAGAGUCAGUGUUGCUGUGAGAUUUGACGUGUACUUGCUAAAGACGAGAGAGAAACCACGUGAAACCUACAUUGCUAUGUUCAUAAUUGCCAAAGCAGUAU: 0.378
GCAGUGCUCGGAACAGCUGAGGCCGUGGCGGGCUCCACUAACCCCCAGUGUUAUCGUGUUUUAUAGCUGCCUUUCUGUGUCUUACACAGUUUGAGAGUAUAUGUUAAUGA: 1.15
UGUAGUUGGCACCAUGGUAUCAUAUAUUAAAACAAUAAUGCAAUUAGAAUUUGGGAGAAGCAAAUAUAGGUCCUGUGUUAAACACUACACAUUUGAAACAAGCUAACCCU: 0.4
CUACCUCCUGGCUUCUCUCCCUGCUGACGUGGCUCUUGUCCUGGAGCAGAGCAGUGCGUUGUUGGGAGAUGGAAAGUCUAUGCGUGGGUACCCUGUCUUCUUGCCUGUGG: 0.803

Further values, each from its own experiment
PhoQ, residues 284 288 289 292 302 303 GNNTDL
fold induction (PhoP, residues 12 14 15 18 19 NQAHL (Escherichia coli, UniProt P23836); Sort-seq, refers to: YFP reporter; E. coli; PhoQ-PhoP variant library, added: 10 µM Mg2+; relative to: high Mg2+ state, higher = stronger signaling): 8.11

A few entries again (series 1):
A158Y: 22.2%
F124P: -4.04%
